Experimental data pooled from the literature.
A part holds a random share of what one study measured.

Series 1 — technique: protein binding microarray; form: double-stranded DNA, one strand shown; sample: in vitro; concentration: not given; baseline: not given; reading: higher = stronger binding
Target: Histone acetyltransferase KAT6A, both winged helices, GST fusion (KAT6A, Homo sapiens, UniProt Q92794, residues 1-181)
Notes: 8-mer, flanks averaged, mean of 2 arrays, mostly near background
Residues (chain): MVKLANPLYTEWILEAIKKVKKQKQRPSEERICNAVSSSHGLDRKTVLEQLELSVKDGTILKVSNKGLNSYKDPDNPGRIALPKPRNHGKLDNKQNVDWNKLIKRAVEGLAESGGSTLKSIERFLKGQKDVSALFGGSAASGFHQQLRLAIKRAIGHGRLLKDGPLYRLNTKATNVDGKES
Strand | E-score
ATCCGAGC | 0.0909
GGCTCGAA | 0.0691
ACAAGAGT | -0.31
ACGAACAG | 0.0726
GTCTCAAA | 0.00348
CGCCCAAG | 0.034

Series 2 — technique: protein-binding microarray; form: double-stranded DNA, one strand shown; sample: in vitro; concentration: 250 nM; notes: 60-bp whole probe; together with: salmon DNA 0.4 mg/ml; baseline: random background probes; reading: higher = stronger binding; constant ends, left off below: GCCTAGCAC … GTCTTGATTCGCTTGACGCTGCTG
Target: Interferon regulatory factor 7, full length, phosphomimetic (IRF7, Homo sapiens, UniProt Q92985, residues 1-503, S101K/S471D/S472D/S475D/S476D/S477D/S483D/S484D/S487D)
Sequence of UniProt Q92985 (whole entry, unmodified, looked up): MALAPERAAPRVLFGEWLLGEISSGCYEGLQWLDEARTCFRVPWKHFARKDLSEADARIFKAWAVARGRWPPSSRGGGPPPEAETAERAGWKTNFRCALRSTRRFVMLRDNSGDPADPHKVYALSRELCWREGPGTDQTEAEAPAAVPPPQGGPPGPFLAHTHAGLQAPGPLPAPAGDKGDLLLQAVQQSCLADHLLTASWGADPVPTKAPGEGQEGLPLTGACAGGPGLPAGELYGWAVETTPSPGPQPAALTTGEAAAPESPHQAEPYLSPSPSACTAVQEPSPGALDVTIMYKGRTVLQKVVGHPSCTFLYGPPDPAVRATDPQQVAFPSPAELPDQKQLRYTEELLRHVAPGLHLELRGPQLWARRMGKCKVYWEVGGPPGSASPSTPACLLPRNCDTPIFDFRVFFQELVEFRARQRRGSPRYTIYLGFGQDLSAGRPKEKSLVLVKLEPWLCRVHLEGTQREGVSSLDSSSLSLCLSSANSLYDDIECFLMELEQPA
Strand | log fluorescence
TTAGGTCTCCTTTTCCTGTAGTGCTAG | 1.95 z-score
TTAGGTTCCCCTTTCCTTTAGTGCTAG | 2.69 z-score
TTAGGATTCGGGACTGGGTTAGTGCTA | 0.449 z-score
TTAGGTATCGACACAGGGTTAGTGCTA | -0.0977 z-score
TCATATATCCATTATAGACTGTGCTAG | 0.784 z-score
TTAGGTATCCTACTCCTTTAGTGCTAG | 0.0926 z-score
CTCTTTTTGCTTTCTTTATGGTGCTAG | 2.18 z-score

Series 3 — technique: universal PBM; form: double-stranded DNA, one strand shown; sample: in vitro; concentration: 600 nM; reading: higher = stronger binding
Target: Sal-like protein 4, full length isoform A (SALL4, Homo sapiens, UniProt Q9UJQ4, residues 1-1053)
Sequence of UniProt Q9UJQ4 (whole entry, looked up): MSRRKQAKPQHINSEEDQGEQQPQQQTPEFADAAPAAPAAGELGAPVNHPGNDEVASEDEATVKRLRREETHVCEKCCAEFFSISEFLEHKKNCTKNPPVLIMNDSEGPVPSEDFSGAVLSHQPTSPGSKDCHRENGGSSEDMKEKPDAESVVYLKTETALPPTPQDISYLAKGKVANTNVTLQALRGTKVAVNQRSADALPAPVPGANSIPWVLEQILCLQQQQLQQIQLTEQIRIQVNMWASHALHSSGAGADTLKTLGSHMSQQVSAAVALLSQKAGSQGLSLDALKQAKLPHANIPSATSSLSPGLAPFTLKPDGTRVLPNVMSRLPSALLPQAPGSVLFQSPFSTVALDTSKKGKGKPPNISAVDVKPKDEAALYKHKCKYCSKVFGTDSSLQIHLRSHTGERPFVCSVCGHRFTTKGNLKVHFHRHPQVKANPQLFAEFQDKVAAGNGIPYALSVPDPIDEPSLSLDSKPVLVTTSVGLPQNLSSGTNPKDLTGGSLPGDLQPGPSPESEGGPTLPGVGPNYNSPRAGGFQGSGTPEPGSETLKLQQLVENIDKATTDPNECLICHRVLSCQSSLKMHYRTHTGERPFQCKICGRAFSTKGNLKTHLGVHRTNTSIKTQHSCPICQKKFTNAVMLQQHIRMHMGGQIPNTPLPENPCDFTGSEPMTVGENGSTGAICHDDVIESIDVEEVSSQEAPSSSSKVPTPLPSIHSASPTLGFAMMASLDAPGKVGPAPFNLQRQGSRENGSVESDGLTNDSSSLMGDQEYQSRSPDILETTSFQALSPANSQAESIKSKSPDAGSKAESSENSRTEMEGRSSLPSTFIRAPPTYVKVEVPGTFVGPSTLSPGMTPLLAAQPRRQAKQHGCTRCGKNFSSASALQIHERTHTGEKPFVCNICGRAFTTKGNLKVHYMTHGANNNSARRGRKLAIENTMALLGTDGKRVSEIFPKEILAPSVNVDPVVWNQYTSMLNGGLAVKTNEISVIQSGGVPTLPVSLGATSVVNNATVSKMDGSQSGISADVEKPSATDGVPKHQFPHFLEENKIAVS
Notes: 8-mer, flanks averaged, mean of replicates
Strand | E-score
AAAAGGCA | 0.085
AAATGGAG | 0.0177
GACTACAA | 0.0852
GAAGCCTC | -0.219
CACGTCGA | -0.224
ATTTGCCG | -0.0558

Other studies, line by line
Substance | target | test | test system | conditions | how to read | endpoint | value
PhoQ, residues 284 288 289 292 302 303 QWGLFV | PhoP, residues 12 14 15 18 19 VHSCL (Escherichia coli, UniProt P23836) | Sort-seq, item: YFP reporter | E. coli | PhoQ-PhoP variant library, together with: 10 µM Mg2+ | baseline: high Mg2+ state, higher = stronger signaling | fold induction | 1.75
